Measured values from different studies.
Each numbered part is a random draw from the data of one study; scales do not carry over between parts.

Set 1
Target: Interferon regulatory factor 5, full length, phosphomimetic (IRF5, Homo sapiens, UniProt Q13568-2, residues 1-514, K96S/S451D/S453D/S456D/S462D)
Technique: protein-binding microarray
Form: double-stranded DNA, one strand shown
Medium: in vitro
Tested at: 250 nM
Notes: 60-bp whole probe
Together with: salmon DNA 0.4 mg/ml
Relative to: random background probes
Direction: higher = stronger binding
All sequences stand within: GCCTAGCAC … GTCTTGATTCGCTTGACGCTGCTG
Sequence	log fluorescence [z-score]
GACGGACTGGGGTATCGGGAAGTGCTA	0.0964
CCTAGCCTCCCAGCCCAGCAGTGCTAG	-0.72
GTCATACGAGCGGTAGCCAAGTGCTAG	-0.404
ATTATGTTTGCTTTGTTCTGGTGCTAG	0.486
GACGGTTTCGGCTCCGGGACGTGCTAG	5.66
TTAGATATCGACACTGGGTTAGTGCTA	1.37
GACGAACTGAGTATCGAGCCGTGCTAG	0.965
GAAGCTTCCTCTCTGCCACTGTGCTAG	0.0726
TGAGAACTGAGTCTCGATTAGTGCTAG	0.528
TTAGATTTAAGTTTCGATTAGTGCTAG	9.66
TTAGGTCTCGGACTGGTTTAGTGCTAG	-0.244
TTAGGTTTCCTTCTGCTTTAGTGCTAG	1.14
TTAGGTTTCGGTTTCGGGTAGTGCTAG	11.5
TTAGGTTTCCTTCCCCTTTAGTGCTAG	0.829
GTTAGAATGTCCTTTCTCCATGTGCTA	0.573
TCAAGTCTGGGCTACAACTTGGTGCTA	-0.656
TGTGCTTTCCTGATGGTCCTGTGCTAG	0.185
TTAGGTATCAGTTTCGATTAGTGCTAG	10
GACCAACTGAGTATCGAGACGTGCTAG	1.53

Set 2
Target: Hepatocyte nuclear factor 3-alpha (Foxa1, Mus musculus, UniProt P35582, residues 1-468, full length assumed)
Technique: EMSA with sequencing
Form: double-stranded DNA, one strand shown
Medium: in vitro
Tested at: 10 and 20 nM
Notes: whole designed probe, mean of two concentrations, ends assumed
Relative to: negative control set to 0
Direction: higher = stronger binding
All sequences stand within: GTGAGCGGTGCCCATTGATGGGGAAC … TTTCACTGGGATCGTGGGGAC
Residues (chain): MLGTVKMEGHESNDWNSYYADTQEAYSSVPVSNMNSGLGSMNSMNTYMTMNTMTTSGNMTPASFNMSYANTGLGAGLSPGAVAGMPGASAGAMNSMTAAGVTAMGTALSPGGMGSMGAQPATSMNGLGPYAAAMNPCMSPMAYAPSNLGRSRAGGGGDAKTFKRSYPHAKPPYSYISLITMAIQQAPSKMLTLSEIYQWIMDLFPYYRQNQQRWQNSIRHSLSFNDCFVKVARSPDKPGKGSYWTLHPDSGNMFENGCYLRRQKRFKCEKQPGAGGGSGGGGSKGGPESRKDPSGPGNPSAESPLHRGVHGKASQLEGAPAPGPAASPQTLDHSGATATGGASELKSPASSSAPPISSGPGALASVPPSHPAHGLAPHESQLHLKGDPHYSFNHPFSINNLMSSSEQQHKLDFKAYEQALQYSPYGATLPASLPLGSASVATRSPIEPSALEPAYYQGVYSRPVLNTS
Sequence	normalised bound fraction [ratio]
CTTTAAGGATTTCAATGTTATAAATAAAAGCTAAGTCCACTGTCATTCATTTTTTATGTCCTACAACAAGGTTACAAAATTAAAATCATATAAAGTAAACATGAAGAGGAAAAGCTTGATCTACTCAATGCATCCACTTCTTCCCAGTTCTCCCCATCCTCTGCCAAGTTGTACCAGGGAGAGTGAAGGAGAA	0.437
CTGTAGCCTTTGCAAATAACCTTTTTGAACAAAAACGGCAATGGCTCATTCCAAACCCGATCAAAGAGGTATGCATGACTCACAGCCACTAAATAAACATTGATGCCTGATGGCAGTAATATGGCTATTTATATTCAGAGCCTGATTTAACCAGTGGCATTCCTGTAATAAGATAATAAGCATGAGCTGTTTA	0.535
CACTCAACAGAAGGTTCTTCAATCCTCAAACTTTATCCAGTGAAAGCACTAATCCTGATATTTCTCTAGTTTCTTTGATGGCATGACCCCTTGTGTAATTTTTGATAGAGATTACACTGACAGTTGTGTAAGCCAGCTGGATCCCAGCCAGGGACAAAGGAATTTATAAAAGGCCAGGAATAGAGAATCCAAG	-0.0403
AGATATTAAACGCCCAGAGAAAGGCTATAATAAAAAATGCATTTAACTTTTTCAAATCTCTTGTTCCCACATCTACTTGAATGCAGAAACTCTAGATTGCCTTAATATTTACTTGTATTTTGCAGAACAAATTTTTGCAGAATTCATTTTGGAAAATGCAGCCACTGACAACTGGGATAATTTTCTAAAGGAA	0.0425
TCGTGATTTGATATCTTGGTAATTTAGACTAGAGCCAGAGCAGTTTTTAAAGAGAATCTTTTCTGATCATTTTAAGCAGCATGATAAATTCTAAGTAATCTTAAATTTTGAATAATTACAGAGTGGGCATGAGCTCTTCCTTTCTTTGTTCCTCTACATGCAAGAAACTGGATGCCAAGCCCAACCTCTGGAT	-0.0806

Set 3
Target: Sal-like protein 4, full length isoform A (SALL4, Homo sapiens, UniProt Q9UJQ4, residues 1-1053)
Chain of UniProt Q9UJQ4 (whole entry, looked up): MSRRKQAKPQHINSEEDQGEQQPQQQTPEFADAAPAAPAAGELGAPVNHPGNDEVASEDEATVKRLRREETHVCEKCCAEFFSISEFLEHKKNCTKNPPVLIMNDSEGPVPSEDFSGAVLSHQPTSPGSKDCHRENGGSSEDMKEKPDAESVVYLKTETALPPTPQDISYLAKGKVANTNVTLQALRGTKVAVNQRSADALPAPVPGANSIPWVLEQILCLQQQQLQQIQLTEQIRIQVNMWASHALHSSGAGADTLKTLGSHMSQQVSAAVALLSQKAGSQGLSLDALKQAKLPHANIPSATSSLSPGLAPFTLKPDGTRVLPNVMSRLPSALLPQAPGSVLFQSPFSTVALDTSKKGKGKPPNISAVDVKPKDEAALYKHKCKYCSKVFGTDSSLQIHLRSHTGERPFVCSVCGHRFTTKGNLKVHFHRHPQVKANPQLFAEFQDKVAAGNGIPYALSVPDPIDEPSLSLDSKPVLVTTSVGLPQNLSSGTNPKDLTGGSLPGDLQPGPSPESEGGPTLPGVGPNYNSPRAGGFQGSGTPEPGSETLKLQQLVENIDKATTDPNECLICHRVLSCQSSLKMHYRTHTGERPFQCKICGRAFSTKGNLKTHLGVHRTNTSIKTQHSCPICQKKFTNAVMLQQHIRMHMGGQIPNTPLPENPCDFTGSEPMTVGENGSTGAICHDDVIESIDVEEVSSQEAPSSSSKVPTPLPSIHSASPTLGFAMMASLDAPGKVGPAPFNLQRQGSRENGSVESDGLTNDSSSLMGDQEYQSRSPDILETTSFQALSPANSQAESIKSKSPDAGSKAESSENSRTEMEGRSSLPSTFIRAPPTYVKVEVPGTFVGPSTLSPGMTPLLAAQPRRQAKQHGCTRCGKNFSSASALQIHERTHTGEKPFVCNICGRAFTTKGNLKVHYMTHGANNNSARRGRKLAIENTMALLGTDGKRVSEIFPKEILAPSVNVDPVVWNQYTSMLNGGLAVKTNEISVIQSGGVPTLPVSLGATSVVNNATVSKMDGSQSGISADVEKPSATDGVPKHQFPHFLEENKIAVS
Technique: universal PBM
Form: double-stranded DNA, one strand shown
Medium: in vitro
Tested at: 600 nM
Notes: 8-mer, flanks averaged, mean of replicates
Direction: higher = stronger binding
Sequence	E-score
CACGGTAG	-0.106
AAGGCGAG	-0.194
ACGATTAG	0.133
GGTCTAGA	-0.135
CTAGGAAC	-0.0576
ACGCGCAA	-0.0231
CGGGTAAC	-0.193
TCTTATCA	0.277
ACATTCGG	-0.0313
ACTCCCAC	-0.212
CCGATGTA	-0.0736
AGTATTTA	0.331
CGGGCATC	-0.364
ACTCCCCG	-0.203
AAGTGATA	0.189
AGATGTTC	0.089
AGTTAGGA	0.104

Set 4
Target: RNA binding protein fox-1 homolog 2, RRM domain, GST-SBP tag (RBFOX2, Homo sapiens, UniProt O43251-10, residues 100-194)
Technique: RNA Bind-n-Seq
Form: RNA
Medium: in vitro
Tested at: 365 nM
Notes: natural RNA segment, single round, ends assumed
Relative to: no-protein control
Direction: higher = stronger binding
All sequences stand within: GGGAGUUCUACAGUCCGACGAUC … UGGAAUUCUCGGGUGCCAA
Construct (chain): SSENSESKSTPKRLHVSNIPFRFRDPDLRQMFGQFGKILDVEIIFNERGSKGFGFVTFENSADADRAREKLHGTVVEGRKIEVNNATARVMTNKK
Sequence	RBNS enrichment (R)
AAAGUAAGGAGGGUGGCCAAAUGGUAAACUAUUGGUACUUGUUUUCUACCUCCUAAAAAUGUAGCUUAUUUUUAGGAUUUAAAUCACUAAGUAAAUAAGUAUCCUUGCCA	0.491
GCUGCCUUUUAAAAAACCCACAAAAUGCUGAUUCAGUUCAAAAUUAAUGCAAAUGUUUCAAAACUGGGUUUCUGAUAUUUGUAAAUGUGUUUCUUUAUUAGAUAAGAGUG	0.846
AUUAGAGUGUCUUUCCACGGAGCCACUCCUCUGACUCAGGGCUCCUGGGUUUUGUAUUCUCUGAGCUGUGCAGGUGGGGAGACUGGGCUGAGGGAGCCUGGCCCCAUGGU	0.664
UUGCUGAGUGCUGGUGCAGGCUUUAUGCUUUCCACGUGAAUUAAAUCAAAUGUGAAGUUGAUCCAGAGAGAGCCUAGGUGACUGGGGAGCCAUUGAGUAGGGAAUUGUAU	0.799
CUCCCUAGUAGUUGGGACUACAGGCGCCCGCCACCAUGCUCAGCUAAUUUUUUGUAUUUUUAGUAGAGACGGUUUCAUCGUGUUAGCCAGGAUGGUCUCGAUCUCCUGAC	0.338
CUUUGGACAGUGUUACAGUGAACACUUAGCAUCCUGUUUUUGGUUGGUAGUUAAGCAAACUGACAUUACGGAAAGUGCCUUAGACACUACAGUACUAAGACAAUGUUGAA	0.316
CUGUGGCCCUUUUUUGAAGCUACUCUGACAUGUCCCAGAGCCCAAGGUUCUCAUUUCUCAGGUGGUGGGACUAGACAGAGGGAGUGGCAAGCUCAGGGAAGGAUCAUUUC	0.25
AGCUCAGGUGAAAGACUGAGAUGAAUGUCUUUCCUCUCCCUGCCUCCCACCAGACUUCCUCCUGGAAAACGCUUUGGUAGAUUUGGCCAGGAGCUUUCUUUUAUGUAAAU	0.386
